# Experimental data collected from several papers.
# Protocols differ between the studies behind these lines. Several values in a cell are separate wells, animals, samples, runs or records. ± marks the error that the study gave.
SMILES,test,system,conditions,how to read,measurement,value
[123I]c1ccc2nc(-c3ccc(-n4ccnn4)nc3)cn2c1,,"Wistar rat, male, red marrow","intravenous, 4 MBq, 1 h",,tissue uptake,0.107 ± 0.018 %ID/g
C=CC[C@@H]1/C=C(\C)C[C@H](C)C[C@H](OC)[C@H]2O[C@@](O)(C(=O)C(=O)N3CCCC[C@H]3C(=O)O[C@H](/C(C)=C/[C@@H]3CC[C@@H](O)[C@H](OC)C3)[C@H](C)[C@@H](O)CC1=O)[C@H](C)C[C@@H]2OC,,"kidney transplant recipients, whole blood","oral, dose not given, early phase, limited sampling",,dose-normalized AUC(0-12h),136 ng·h/mL
C=C(NC(=O)c1csc(-c2nc3c(cc2O)-c2nc(cs2)C(=O)NC(C(C)O)C(=O)NC(=C(C)OC)c2nc(cs2)C(=O)NC2c4nc(cs4)C(=O)NC(COC(=O)c4c5c6c(cccc6n4O)COC(=O)C(OC4CC(C)(O)C(N(C)C)C(C)O4)C2OC5)c2nc-3cs2)n1)C(N)=O (stereo not drawn),,"male Sprague-Dawley rat, plasma","intravenous, 18 mg/kg, single dose, infusion",,Tmax,4.8 min
COCCN(C)C(C)C(=O)NC(Cc1ccc(-c2ccccc2)cc1)B(O)O (stereo not drawn),,Caco-2,,,Papp B→A,25 ×10⁻⁶ cm/s
COc1cccc(OC)c1-c1cc(C(=O)NC2(C(=O)O)C3CC4CC(C3)CC2C4)nn1-c1ccc(C(=O)N(C)CCOCCOCCN(C)C(=O)[C@H](CCCCNC(=O)[C@H](CC(C)C)NC(=O)C2OC2C(=O)O)NC(=O)CN2CCN(CC(=O)[O-])CCN(CC(=O)[O-])CCN(CC(=O)[O-])CC2)cc1C(C)C.[177Lu+3] (mixture of isomers),,mouse HT-29 xenograft,"4 h, biodistribution",baseline: tumour over small intestine,tumour-to-small intestine ratio,6.84
CC(C)(C)C(=O)Nc1ccc2[nH]c(CN3CCC(N(CCCN4CCOCC4)CC4OC(n5cnc6c(N)ncnc65)C(O)C4O)CC3)nc2c1 (stereo not drawn),,"male Sprague-Dawley rat, plasma","intravenous, 20 mg/kg, 15 min",,concentration,2440 ng/mL
O=C(Nc1cnccc1-c1ccc([18F])cc1)c1ccnc(NC(=O)C2CC2)c1,,"FVB/NJ mice (both sexes), blood","intravenous, dose not given, 120 min",,SUV,0.15
Cc1nc(N)nc2c1C(=O)N[C@@H](c1ccc(F)cc1-c1cccc(OCC[18F])n1)C2,,"Wistar rats, blood","intravenous, dose not given, 100 min",,radioactivity in blood cells,41 ± 5%
CC[C@H](C)[C@H](NC(=O)CNC(=O)[C@H](C)NC(=O)[C@H](CC(=O)O)NC(=O)[C@H](CO)NC(=O)[C@H](C)NC(=O)[C@H](CC(C)C)NC(=O)[C@H](CCCCN)NC(=O)[C@H](CCCCN)NC(=O)[C@H](CCSC)NC(=O)[C@H](CC(N)=O)NC(=O)[C@H](Cc1ccccc1)NC(=O)[C@H](CC(=O)O)NC(=O)[C@@H](N)CCSC)C(=O)N[C@@H](Cc1c[nH]c2ccccc12)C(=O)N[C@@H](Cc1ccccc1)C(=O)N[C@H](C(=O)N[C@@H](CCCNC(=N)N)C(=O)N[C@@H](C)C(=O)N[C@H](C(=O)N[C@@H](CCC(N)=O)C(=O)N[C@@H](Cc1ccccc1)C(=O)N[C@H](C(=O)N[C@@H](CCC(=O)O)C(=O)N[C@@H](CCC(=O)O)C(=O)N[C@@H](CCCCN)C(=O)N[C@@H](Cc1ccccc1)C(=O)NCC(=O)N[C@@H](CCC(N)=O)C(=O)N[C@@H](C)C(N)=O)[C@@H](C)O)C(C)C)[C@@H](C)O,circular dichroism,100% DOPS liposomes,1 mM lipid,,helical content,36%
CCCCC/C=C\CCCO[Si](CCCCN(C)C)(OCCC/C=C\CCCCC)OCCC/C=C\CCCCC,,,"pH 5.5, formulated",,zeta potential,2.69 mV
Cc1cc(-c2ccc(C(=O)[C@@H]3CCCC[C@H]3C(=O)Nc3cnn4c3C(=O)NCC4)cc2)[nH]n1,,"human, urine","oral, 200 mg, 0-6 h",baseline: dose,cumulative radioactivity recovery,1.77% and 1.75% and 2.88% and 1.3% and 2.75% and 2.03%
Nc1nc2cnc(C(=O)N3CCOC[C@@H]3c3ccc(C(F)(F)F)cc3)cc2c2c1COC2,,"dog, plasma",,,fraction unbound,0.083

# For quick reference, copied from above:
SMILES,test,system,conditions,how to read,measurement,value
Cc1nc(N)nc2c1C(=O)N[C@@H](c1ccc(F)cc1-c1cccc(OCC[18F])n1)C2,,"Wistar rats, blood","intravenous, dose not given, 100 min",,radioactivity in blood cells,41 ± 5%
CC[C@H](C)[C@H](NC(=O)CNC(=O)[C@H](C)NC(=O)[C@H](CC(=O)O)NC(=O)[C@H](CO)NC(=O)[C@H](C)NC(=O)[C@H](CC(C)C)NC(=O)[C@H](CCCCN)NC(=O)[C@H](CCCCN)NC(=O)[C@H](CCSC)NC(=O)[C@H](CC(N)=O)NC(=O)[C@H](Cc1ccccc1)NC(=O)[C@H](CC(=O)O)NC(=O)[C@@H](N)CCSC)C(=O)N[C@@H](Cc1c[nH]c2ccccc12)C(=O)N[C@@H](Cc1ccccc1)C(=O)N[C@H](C(=O)N[C@@H](CCCNC(=N)N)C(=O)N[C@@H](C)C(=O)N[C@H](C(=O)N[C@@H](CCC(N)=O)C(=O)N[C@@H](Cc1ccccc1)C(=O)N[C@H](C(=O)N[C@@H](CCC(=O)O)C(=O)N[C@@H](CCC(=O)O)C(=O)N[C@@H](CCCCN)C(=O)N[C@@H](Cc1ccccc1)C(=O)NCC(=O)N[C@@H](CCC(N)=O)C(=O)N[C@@H](C)C(N)=O)[C@@H](C)O)C(C)C)[C@@H](C)O,circular dichroism,100% DOPS liposomes,1 mM lipid,,helical content,36%
